Measurements from different studies.
Compare with care: the assays were run in different laboratories. ± gives the spread as reported.
Chain of UniProt Q8NB78 (whole entry, looked up): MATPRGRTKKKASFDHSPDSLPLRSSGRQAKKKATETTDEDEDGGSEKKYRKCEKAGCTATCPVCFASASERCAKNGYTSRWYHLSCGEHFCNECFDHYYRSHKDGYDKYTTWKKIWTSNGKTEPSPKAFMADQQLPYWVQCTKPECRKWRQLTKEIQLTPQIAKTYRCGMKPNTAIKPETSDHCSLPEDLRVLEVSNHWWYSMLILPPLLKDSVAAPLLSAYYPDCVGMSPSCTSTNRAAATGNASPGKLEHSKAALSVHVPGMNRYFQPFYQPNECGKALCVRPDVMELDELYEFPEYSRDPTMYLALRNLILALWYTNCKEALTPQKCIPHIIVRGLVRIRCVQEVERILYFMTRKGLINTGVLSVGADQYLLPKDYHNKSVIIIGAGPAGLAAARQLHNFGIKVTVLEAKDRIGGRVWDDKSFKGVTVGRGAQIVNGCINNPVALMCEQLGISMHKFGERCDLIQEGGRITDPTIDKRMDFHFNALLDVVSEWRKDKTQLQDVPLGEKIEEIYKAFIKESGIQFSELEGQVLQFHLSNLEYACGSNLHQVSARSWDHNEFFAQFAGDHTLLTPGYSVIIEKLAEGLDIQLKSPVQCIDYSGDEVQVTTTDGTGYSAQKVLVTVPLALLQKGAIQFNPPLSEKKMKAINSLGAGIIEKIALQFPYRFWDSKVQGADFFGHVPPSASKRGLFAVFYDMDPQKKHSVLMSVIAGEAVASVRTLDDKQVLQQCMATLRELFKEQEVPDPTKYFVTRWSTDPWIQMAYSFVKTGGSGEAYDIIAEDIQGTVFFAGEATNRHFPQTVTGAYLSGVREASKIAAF

COc1cc(CNC(=O)C[C@H](C)CCC=C(C)C)ccc1O
growth percent (T47D breast cancer cells; SRB; 10 µM, 48 h): 89%

CC1(C)Cc2c(-c3ccccc3)c(-c3ccc(Cl)cc3)c(CC(=O)O)n2C1
IC50 (THP-1-derived macrophages; LTB4 production; together with: LPS): 0.53 µM

CN(C)S(=O)(=O)c1ccc(Cl)c(NC(=O)CC[Se]Cc2ccc(C(C)(C)C)cc2)c1
IC50 (normal cells): > 100 µM

COc1cc(CNC(=O)C[C@H](C)CCC=C(C)C)ccc1OCc1cn(-c2ccc(F)cc2)nn1
growth percent (RXF 393; SRB; 10 µM, 48 h): 52.3%

O=C(/C=C/c1ccc(O)c(O)c1)c1ccc(O)cc1O
IC50 (human cells; NF-κB reporter gene, inhibitor; together with: TNF-alpha): 38 µM

COc1c(OCCCCN2CCCC2)cc(O)c2c(=O)cc(-c3ccccc3)oc12
IC50 (KBM5-T315I; cell growth, CCK-8; 12 h): 5.88 ± 1.67 µM

CC(C)Cc1ccc(C(C)C(=O)N/N=C/c2ccc(OCC(=O)N/N=C/c3c(O)ccc4ccccc34)cc2)cc1 (stereo not shown)
IC50 (U87 MG; cytotoxicity, MTT): 52.81 ± 0.06 µM

COc1ccc(C(c2c[nH]c3ccc(OC)cc23)c2c[nH]c3ccc(OC)cc23)cc1
IC50 (B16; cell growth or viability, MTT; 24 h): 8.89 µM

CCNC(=O)Nc1ccc(S(=O)(=O)Oc2ccccc2CC)cc1
IC50 (M21; cell growth or viability, SRB; 48 h): 5.3 µM

COc1cc(CN2CCN(c3cccc(Cl)c3)CC2)c2cc3[n+](cc2c1O)CCc1cc2c(cc1-3)OCO2
IC50 (Ca-Ski; cell growth or viability, SRB; 48 h): 4.92 µg/mL

O=C(NNc1nc(-c2ccccc2)cs1)c1cc2ccc(O)cc2oc1=O
IC50 (EA.hy 926; cell growth or viability, SRB; 72 h): 8.4 µM

COc1ccc(CCCN[C@H]2CCC[C@@H]2CN[C@@H]2CCC[C@H]2CNCCCCN[C@@H]2CCC[C@H]2CN)cc1
Ki (KDM1B (Homo sapiens, UniProt Q8NB78); enzyme activity, inhibitor): 9.5 µM

CSCC[C@@H]1NC(=O)CN(S(C)(=O)=O)CCNC(=O)[C@H](CCCCN)NC(=O)[C@H](CC(C)C)NC(=O)[C@H](CCCCN)NC(=O)[C@H](CC(C)C)NC(=O)[C@H](CCCCN)NC(=O)CN(S(C)(=O)=O)CCNC(=O)[C@H](Cc2c[nH]c3ccccc23)NC(=O)[C@H](CO)NC(=O)[C@H](C(C)C)NC(=O)[C@H](C(C)C)NC1=O
IC50 (NCI-H929; viability, TO-PRO-3 staining, flow cytometry): 15.5 µM

CC1(C)CCCC(C)(C2CCC3(C)C2C(O)CC2C4(C)CCC(OC(=O)C=Cc5ccc(Cl)cc5)C(C)(C)C4C(OC(=O)C=Cc4ccc(Cl)cc4)CC23C)O1 (stereo not shown)
IC50 (Hep3B; HRE reporter gene, inhibitor; 24 h, hypoxia): > 30 µM

C=C(C)[C@@H]1CC[C@]2(C(=O)O)CC[C@]3(C)[C@H](CC[C@@H]4[C@@]5(C)CC[C@H](O[C@@H]6O[C@@H](C)[C@H](O)[C@@H](OC)[C@H]6O)C(C)(C)[C@@H]5CC[C@]43C)[C@@H]12
IC50 (DLD-1; cell growth or viability, fluorescence; 48 h): 10 µM

FC(F)(F)c1n[nH]cc1-c1nc2ccc3[nH]ncc3c2c2c1CCC2
IC50 (MOLM-14; cell growth or viability, resazurin; 72 h): 0.0458 µM

C=CCc1cc(OC)c(OC(C)=O)c(OC)c1
IC50 (HMEC; MTT; 24 h): > 50 µM

CC(C)C1OC(=O)C(NC(=O)c2cccc(O)c2)C(C)OC(=O)C(C(C)C)OC(=O)C(C)(C)C(=O)C(Cc2ccccc2)OC1=O (stereo not shown)
IC50 (SGC-7901/DDP cisplatin-resistant; cell viability, CCK-8; 72 h): > 20 µM

C[N+]1(C)CC[NH2+][Pt-2]1([OH])([Cl])([Cl])[O]C(=O)CCC(=O)O
IC50 (P31; cell viability, EZ4U; 96 h): 164 ± 2 µM

C=CC(OC(C)=O)c1ccccc1 (stereo not shown)
IC50 (HMEC; MTT; 24 h): > 50 µM

O=[N+]([O-])c1ccc(C=[N+]2N=C(Nc3ccccc3)[S][Pt-]2([Cl])[Cl])s1
IC50 (MDCK; cell proliferation): 3.4 µM

CC[C@H](C)[C@H](N)C(=O)Nc1ccc2nc(Cc3c[nH]c4ccccc34)[nH]c2c1
IC50 (NCI-H358; cell growth or viability, ATP luminescence; 72 h): 20.2 µM

CC(C)C(NC(=O)OC(C)(C)C)C(=O)OC1CC2(C)C(CC(O)C3C(C4(C)CCCC(C)(C)O4)CCC32C)C2(C)CCC(OC(=O)C(NC(=O)OC(C)(C)C)C(C)C)C(C)(C)C12 (stereo not shown)
IC50 (Hep3B; HRE reporter gene, inhibitor; 24 h, hypoxia): > 30 µM

CCc1n(CC(=O)O[C@@H]2C[C@H](C)CC[C@H]2C(C)C)c2ccccc2[n+]1C
IC50 (HTS; cell growth or viability, ATP luminescence; 96 h): 0.15 µM

CCCC[C@@H]1NC(=O)CN(S(C)(=O)=O)CCNC(=O)[C@H](CCCCN)NC(=O)[C@H](CC(C)C)NC(=O)[C@H](CCCCN)NC(=O)[C@H](CC(C)C)NC(=O)[C@H](CCCCN)NC(=O)COC[C@H]2CCCN2C(=O)[C@H](Cc2c[nH]c3ccccc23)NC(=O)[C@H](C)NC(=O)[C@H](C(C)C)NC(=O)[C@H](C(C)C)NC1=O
IC50 (NCI-H929; viability, TO-PRO-3 staining, flow cytometry): 1.2 µM

CC(C)(C)OC(=O)NCC(=O)OC1CC2(C)C(CC(O)C3C(C4(C)CCCC(C)(C)O4)CCC32C)C2(C)CCC(O)C(C)(C)C12 (stereo not shown)
IC50 (Hep3B; HRE reporter gene, inhibitor; 24 h, hypoxia): 2.04 ± 0.23 µM

N[C@@H](CCC(=O)N[C@@H](CS[Se]Cc1ccc(-c2cc(C(F)(F)F)nn2-c2ccc(S(N)(=O)=O)cc2)cc1)C(=O)NCC(=O)O)C(=O)O
IC50 (UACC-903 melanoma cells; cell viability, MTS; 24 h, metastatic stage): 30.9 ± 2.8 µM

C[C@@]1(C(=O)O)CC/C=C/[C@H](OC(=O)Nc2ccn([C@@H]3O[C@H](CO)[C@@H](O)C3(F)F)c(=O)n2)CC1
IC50 (MC-38; cell growth or viability, MTT; 24 h): 0.026 µM

C[C@]12CC/C(=N/O)C=C1CCC1C2CC[C@]2(C)/C(=C/c3ccccn3)CCC12 (stereo partly shown)
IC50 (CEM; cytotoxicity, alamarBlue; 72 h): > 50 µM

Brc1ccc(Nc2nc(NN=Cc3c[nH]c4ccccc34)nc(-n3ccnc3)n2)cc1
IC50 (SK-BR-3; cell growth or viability, SRB; 5 days): 1.6 µM

CC1(C)CCCC(C)(C2CCC3(C)C2C(O)CC2C4(C)CCC(OC(=O)NC5CCCCC5)C(C)(C)C4C(O)CC23C)O1 (stereo not shown)
IC50 (Hep3B; HRE reporter gene, inhibitor; 24 h, hypoxia): 4.09 ± 0.12 µM

CSC(=S)N/N=C(\C)c1ccc(Nc2nnc(-c3ccc(Cl)cc3)c3ccccc23)cc1
IC50 (HepG2; cell growth or viability, MTT): 0.2 µM

COc1cc(CC(=O)N2CC(=O)N[C@@H](Cc3ccccc3)CN(C(=O)Cc3ccc4ccccc4c3)CC(=O)N[C@@H](CCCCN)CN(C(=O)Cc3ccc4c(c3)OCO4)CC(=O)N[C@@H](CCCCN)CN(CC(N)=O)C(=O)CCSCc3ccc(cc3)C(=O)N[C@@H](CC(C)C)C2)cc(OC)c1
IC50 (SK-BR-3; western blot, measured: phospho-HER2; 4 h): 12.9 µM

COc1ccc(CCC(=O)c2c(O)cc(OC)cc2O)cc1
IC50 (human cells; NF-κB reporter gene, inhibitor; together with: TNF-alpha): 11 µM

O=C(NO)c1ccc(Nc2cnc3ccccn23)cc1
IC50 (CAL-27; cell growth or viability, MTT): 4.61 µM

Cc1c(OCc2ccccc2)c(=O)ccn1CCCOC(=O)c1ccccc1[N+](=O)[O-]
IC50 (fibroblast cells; cell viability, MTT; 48 h): 190 µg/mL

C[C@]12CC/C(=N\OCCN3CCOCC3)C=C1CCC1C2CC[C@]2(C)/C(=C/c3ccccn3)CCC12 (stereo partly shown)
IC50 (CEM; cytotoxicity, alamarBlue; 72 h): 21.9 µM

Cc1ccc2ncc(Nc3ccc(C(=O)NO)cc3)n2c1
IC50 (CAL-27; cell growth or viability, MTT): 4.21 µM

CC1=C2[O][Ru-]([Cl])[O+]=C2C=CN1CCCCCCN1C=CC2=[O+][Ru-]([Cl])[O]C2=C1C.Cc1ccc(C(C)C)cc1.Cc1ccc(C(C)C)cc1
IC50 (RT-4; cell growth or viability, crystal violet; 96 h): > 20 µM

Cc1ccc(CN2C(=O)/C(=N\c3ccc(Cl)cc3Br)c3ccccc32)cc1
IC50 (B16; cell growth or viability, MTT; 48 h): 0.26 µM

O=[N+]([O-])c1ccc(NC2=N[N+](=Cc3cccs3)[Pt-]([Cl])([Cl])[S]2)cc1
IC50 (MDCK; cell proliferation): > 100 µM

Cc1c(OCc2ccccc2)c(=O)ccn1CCCOC(=O)c1cccc(Cl)c1
IC50 (fibroblast cells; cell viability, MTT; 48 h): 59 µg/mL

COc1ccc(OC)c(C(c2c[nH]c3ccccc23)c2c[nH]c3ccccc23)c1
IC50 (B16; cell growth or viability, MTT; 24 h): 8.17 µM

COc1ccc(-n2cc(C(=O)OC3CC4(C)C(CC(O)C5C(C6(C)CCCC(C)(C)O6)CCC54C)C4(C)CCC(O)C(C)(C)C34)nn2)cc1 (stereo not shown)
IC50 (Hep3B; HRE reporter gene, inhibitor; 24 h, hypoxia): > 30 µM

O=C(O)Cc1ccccc1Nc1c(Cl)cccc1Cl.O=C(O)Cc1ccccc1Nc1c(Cl)cccc1Cl.c1cnc2c(c1)ccc1cccnc12.c1cnc2c(c1)ccc1cccnc12
IC50 (CAL-27; cell viability, MTT; 48 h): 1.69 ± 0.026 µM

CC1(C)CCCC(C)(C2CCC3(C)C2C(O)CC2C4(C)CCC(O)C(C)(C)C4C(OC(=O)/C=C\c4ccc(Cl)cc4)CC23C)O1 (stereo not shown)
IC50 (Hep3B; HRE reporter gene, inhibitor; 24 h, hypoxia): 6.59 ± 0.11 µM

CC(C)=CCC1=C(O)c2c(occ(-c3ccc(O)cc3)c2=O)C(CC=C(C)C)(CC=C(C)C)C1=O
IC50 (Huh-7; cell growth or viability, MTT; 24 h): 14.8 µM

C#CCOc1ccc(C(=O)c2ccc(NC(=O)C(=O)NCCc3ccc(O)cc3)cc2)cc1
IC50 (NSCLC cell lines; cell viability; range over eight lines): 0.003 to 0.015 µM

CC[C@H]1[C@@H](O)[C@@H]2[C@H](CC[C@]3(C)[C@@H]([C@H](C)CCOS(=O)(=O)[O-])CC[C@@H]23)[C@@]2(C)CC[C@@H](O)C[C@@H]12.[Na+]
whole-body fat mass (EchoMRI; ob/ob NASH mouse model; oral, 10 mg/kg once daily, 8 weeks): 19.3 ± 0.7 g

COC(=O)[C@]12CS[C@H](c3ccccc3)N1C(=O)/C(=C(\O)CCc1ccccc1)C2=O
IC50 (MDCK; cell growth or viability, resazurin): 62.5 µg/mL

CCC(CC)c1nc(-c2ccc(O)cc2O)cs1
IC50 (HPNE; cell growth or viability, resazurin; 72 h): 6.54 µM

CC(C)C[C@H](NC(=O)[C@H](CO)NC(=O)[C@H](CCCNC(=N)N)NC(=O)[C@H](CC(=O)O)NC(=O)[C@H](CCC(=O)O)NC(=O)[C@H](C)NC(=O)[C@@H]1CCCN1C(=O)[C@H](C)NC(=O)[C@H](CCC(=O)O)NC(=O)[C@@H]1CCCN1C(=O)[C@@H]1CCCN1)C(N)=O
DOPAC/DA ratio reduction (dopamine system; rhesus monkey, contralateral globus pallidus; intranasal, dose not given, repeated dose escalation; baseline: vehicle): 56%

NC(=S)NNC(=O)c1cc2ccc(O)cc2oc1=O
IC50 (EA.hy 926; cell growth or viability, SRB; 72 h): 26.6 µM

CCCC[C@@H]1NC(=O)CN(S(C)(=O)=O)CCNC(=O)[C@H](CCCCN)NC(=O)[C@H](CC(C)C)NC(=O)[C@H](CCCCN)NC(=O)[C@H](CC(C)C)NC(=O)[C@H](CCCCN)NC(=O)CN(S(C)(=O)=O)CCNC(=O)[C@H](Cc2c[nH]c3ccccc23)NC(=O)[C@H](CO)NC(=O)[C@H](C(C)C)NC(=O)[C@H](C(C)C)NC1=O
IC50 (NCI-H929; viability, TO-PRO-3 staining, flow cytometry): 2.6 µM

COc1cc(CN2CCN(c3ccccc3F)CC2)c2cc3[n+](cc2c1O)CCc1cc2c(cc1-3)OCO2
IC50 (Ca-Ski; cell growth or viability, SRB; 48 h): 4.62 µg/mL

A few entries again:
C[N+]1(C)CC[NH2+][Pt-2]1([OH])([Cl])([Cl])[O]C(=O)CCC(=O)O
IC50 (P31; cell viability, EZ4U; 96 h): 164 ± 2 µM

COc1ccc(CCCN[C@H]2CCC[C@@H]2CN[C@@H]2CCC[C@H]2CNCCCCN[C@@H]2CCC[C@H]2CN)cc1
Ki (KDM1B (Homo sapiens, UniProt Q8NB78); enzyme activity, inhibitor): 9.5 µM

CC(C)(C)OC(=O)NCC(=O)OC1CC2(C)C(CC(O)C3C(C4(C)CCCC(C)(C)O4)CCC32C)C2(C)CCC(O)C(C)(C)C12 (stereo not shown)
IC50 (Hep3B; HRE reporter gene, inhibitor; 24 h, hypoxia): 2.04 ± 0.23 µM

CC1(C)CCCC(C)(C2CCC3(C)C2C(O)CC2C4(C)CCC(OC(=O)C=Cc5ccc(Cl)cc5)C(C)(C)C4C(OC(=O)C=Cc4ccc(Cl)cc4)CC23C)O1 (stereo not shown)
IC50 (Hep3B; HRE reporter gene, inhibitor; 24 h, hypoxia): > 30 µM

O=C(/C=C/c1ccc(O)c(O)c1)c1ccc(O)cc1O
IC50 (human cells; NF-κB reporter gene, inhibitor; together with: TNF-alpha): 38 µM

COC(=O)[C@]12CS[C@H](c3ccccc3)N1C(=O)/C(=C(\O)CCc1ccccc1)C2=O
IC50 (MDCK; cell growth or viability, resazurin): 62.5 µg/mL

Cc1c(OCc2ccccc2)c(=O)ccn1CCCOC(=O)c1cccc(Cl)c1
IC50 (fibroblast cells; cell viability, MTT; 48 h): 59 µg/mL

N[C@@H](CCC(=O)N[C@@H](CS[Se]Cc1ccc(-c2cc(C(F)(F)F)nn2-c2ccc(S(N)(=O)=O)cc2)cc1)C(=O)NCC(=O)O)C(=O)O
IC50 (UACC-903 melanoma cells; cell viability, MTS; 24 h, metastatic stage): 30.9 ± 2.8 µM
